Results from different studies.
Every numbered part comes from another study and shows a few of its results, in no order.

Series 1
Target: Interferon regulatory factor 7, full length, phosphomimetic (IRF7, Homo sapiens, UniProt Q92985, residues 1-503, S471D/S472D/S475D/S476D/S477D/S483D/S484D/S487D)
Method: protein-binding microarray
Molecule type: double-stranded DNA, one strand shown
Medium: in vitro
Concentration: 2200 nM top
Setting: 60-bp whole probe
Added: salmon DNA 0.4 mg/ml
Baseline: random background probes
Direction: higher = stronger binding
Measurement: fitted relative affinity
All sequences stand within: GCCTAGCAC … GTCTTGATTCGCTTGACGCTGCTG
Residues (chain): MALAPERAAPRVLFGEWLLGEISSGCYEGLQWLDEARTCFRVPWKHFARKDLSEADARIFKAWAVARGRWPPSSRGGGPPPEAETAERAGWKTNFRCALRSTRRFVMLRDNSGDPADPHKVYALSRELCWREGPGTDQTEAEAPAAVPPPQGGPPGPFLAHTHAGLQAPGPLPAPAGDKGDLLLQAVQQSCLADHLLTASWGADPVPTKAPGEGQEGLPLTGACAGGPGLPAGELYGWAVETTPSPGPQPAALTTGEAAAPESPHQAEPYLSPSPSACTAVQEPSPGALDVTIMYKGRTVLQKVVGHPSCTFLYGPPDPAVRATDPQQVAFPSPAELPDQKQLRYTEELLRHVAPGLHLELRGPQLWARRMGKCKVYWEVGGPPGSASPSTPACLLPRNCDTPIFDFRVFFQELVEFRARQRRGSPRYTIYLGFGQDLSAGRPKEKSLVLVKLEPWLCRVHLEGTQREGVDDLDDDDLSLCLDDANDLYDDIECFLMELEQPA
Sequence = TTAGGTATCCTATTGCTTTAGTGCTAG; result = 0.616 z-score
Sequence = GGCGGTTTCCTTTTCCTGACGTGCTAG; result = 5.75 z-score
Sequence = GACGGACTGCTTATCCTGAAGTGCTAG; result = 0.221 z-score
Sequence = GGCTTGACGTCATCCCCTTGGTGCTAG; result = -0.371 z-score
Sequence = GACGGTTTCCTAATCCTGACGTGCTAG; result = 2.22 z-score
Sequence = TCAGCTCTAGGTTCTCTGAAGGTGCTA; result = -0.11 z-score
Sequence = GACCGTTTCCTTTCCCTGACGTGCTAG; result = 3.87 z-score
Sequence = TTAGGTTTCAGTATCGATTAGTGCTAG; result = 2.34 z-score
Sequence = GACGCACTGGGGACTGGGGACGTGCTA; result = -0.258 z-score

Series 2
Target: Sal-like protein 4, full length isoform B (SALL4, Homo sapiens, UniProt Q9UJQ4-2, residues 1-616)
Method: universal PBM
Molecule type: double-stranded DNA, one strand shown
Medium: in vitro
Concentration: not given
Setting: 8-mer, flanks averaged, mean of replicates
Direction: higher = stronger binding
Measurement: E-score
Sequence = GTACACGA; result = 0.0728
Sequence = AGTTTTCG; result = 0.093
Sequence = AAGATACC; result = 0.114
Sequence = AGATAAAC; result = 0.194
Sequence = AAACTATT; result = 0.302
Sequence = ACCGGCTA; result = -0.293

Series 3
Target: Protein C-ets-1 (ETS1, Homo sapiens, UniProt P14921, residues 1-441, Y397A, full length assumed)
Method: protein-binding microarray
Molecule type: double-stranded DNA, one strand shown
Medium: in vitro
Concentration: not given
Setting: k-mer, scored over probes, only values ≥0.25
Direction: higher = stronger binding
Measurement: E-score
Residues (chain): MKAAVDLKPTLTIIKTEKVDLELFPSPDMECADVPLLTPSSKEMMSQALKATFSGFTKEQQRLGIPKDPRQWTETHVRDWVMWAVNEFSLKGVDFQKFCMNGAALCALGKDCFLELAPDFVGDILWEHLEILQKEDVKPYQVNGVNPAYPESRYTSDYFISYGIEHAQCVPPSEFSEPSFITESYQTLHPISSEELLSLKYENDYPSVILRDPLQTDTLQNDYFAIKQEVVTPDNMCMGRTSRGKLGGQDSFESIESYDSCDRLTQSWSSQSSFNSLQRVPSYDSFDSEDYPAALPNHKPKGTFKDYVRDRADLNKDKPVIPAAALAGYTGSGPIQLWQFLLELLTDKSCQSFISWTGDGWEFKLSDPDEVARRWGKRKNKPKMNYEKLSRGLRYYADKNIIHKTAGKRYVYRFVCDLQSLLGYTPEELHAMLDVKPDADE
Sequence = GTTACAAA; result = 0.305
Sequence = ACGTGACA; result = 0.262
Sequence = AAATGGCA; result = 0.289
Sequence = GGAAGTAC; result = 0.318
Sequence = ATGTTAAC; result = 0.265
Sequence = CCGCAAAA; result = 0.308
Sequence = ACTGTACA; result = 0.263
Sequence = AACGGATG; result = 0.301
Sequence = ACGTTGAA; result = 0.277

Mixed results
Substance = PhoQ, residues 284 288 289 292 302 303 TAVSDG; target = PhoP, residues 12 14 15 18 19 NYFTV (Escherichia coli, UniProt P23836); test = Sort-seq, refers to: YFP reporter; test system = E. coli; setting = PhoQ-PhoP variant library, added: 10 µM Mg2+; how to read = baseline: high Mg2+ state, higher = stronger signaling; measurement = fold induction; result = 5.32

Excerpt of the above (series 3):
Sequence = GTTACAAA; result = 0.305
Sequence = ACGTGACA; result = 0.262
Sequence = AAATGGCA; result = 0.289
